Assay results of several laboratories.
Every numbered part comes from another study and shows a few of its results, in no order.

Study 1
Target: Interferon regulatory factor 7, full length, phosphomimetic (IRF7, Homo sapiens, UniProt Q92985, residues 1-503, S471D/S472D/S475D/S476D/S477D/S483D/S484D/S487D)
UniProt Q92985, sequence (whole entry, unmodified, looked up): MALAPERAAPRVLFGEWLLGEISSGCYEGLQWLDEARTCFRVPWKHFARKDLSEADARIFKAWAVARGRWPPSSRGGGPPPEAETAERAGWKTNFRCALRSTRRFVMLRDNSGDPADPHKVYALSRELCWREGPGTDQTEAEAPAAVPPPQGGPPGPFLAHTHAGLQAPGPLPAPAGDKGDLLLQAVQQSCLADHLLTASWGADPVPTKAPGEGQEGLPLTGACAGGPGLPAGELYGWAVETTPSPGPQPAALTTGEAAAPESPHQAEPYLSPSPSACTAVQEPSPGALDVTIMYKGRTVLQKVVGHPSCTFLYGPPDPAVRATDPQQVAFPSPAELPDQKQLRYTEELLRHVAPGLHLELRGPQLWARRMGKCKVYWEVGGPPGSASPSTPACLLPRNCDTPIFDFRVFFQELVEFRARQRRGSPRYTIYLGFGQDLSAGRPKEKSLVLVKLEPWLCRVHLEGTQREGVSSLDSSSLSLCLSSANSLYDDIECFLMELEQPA
Method: protein-binding microarray
Form: double-stranded DNA, one strand shown
Sample: in vitro
Tested at: 2200 nM top
Notes: 60-bp whole probe
Together with: salmon DNA 0.4 mg/ml
Baseline: random background probes
Direction: higher = stronger binding
Strand | fitted relative affinity
GCCTAGCACTTAGATTTCAGTATCGATTCGTGCTAGGTCTTGATTCGCTTGACGCTGCTG | 1.95 z-score
GCCTAGCACTAGTTGCAAGCCATGGGTGGGTGCTAGGTCTTGATTCGCTTGACGCTGCTG | -0.42 z-score
GCCTAGCACTTAGATCACAGACTGGATTAGTGCTAGGTCTTGATTCGCTTGACGCTGCTG | -0.169 z-score
GCCTAGCACTTGTCTTTTCATTTTCTTTAGTGCTAGGTCTTGATTCGCTTGACGCTGCTG | 3.32 z-score

Study 2
Target: Transcriptional repressor CTCF (CTCF, Homo sapiens, UniProt P49711, residues 1-727, full length assumed)
UniProt P49711, sequence (whole entry, looked up): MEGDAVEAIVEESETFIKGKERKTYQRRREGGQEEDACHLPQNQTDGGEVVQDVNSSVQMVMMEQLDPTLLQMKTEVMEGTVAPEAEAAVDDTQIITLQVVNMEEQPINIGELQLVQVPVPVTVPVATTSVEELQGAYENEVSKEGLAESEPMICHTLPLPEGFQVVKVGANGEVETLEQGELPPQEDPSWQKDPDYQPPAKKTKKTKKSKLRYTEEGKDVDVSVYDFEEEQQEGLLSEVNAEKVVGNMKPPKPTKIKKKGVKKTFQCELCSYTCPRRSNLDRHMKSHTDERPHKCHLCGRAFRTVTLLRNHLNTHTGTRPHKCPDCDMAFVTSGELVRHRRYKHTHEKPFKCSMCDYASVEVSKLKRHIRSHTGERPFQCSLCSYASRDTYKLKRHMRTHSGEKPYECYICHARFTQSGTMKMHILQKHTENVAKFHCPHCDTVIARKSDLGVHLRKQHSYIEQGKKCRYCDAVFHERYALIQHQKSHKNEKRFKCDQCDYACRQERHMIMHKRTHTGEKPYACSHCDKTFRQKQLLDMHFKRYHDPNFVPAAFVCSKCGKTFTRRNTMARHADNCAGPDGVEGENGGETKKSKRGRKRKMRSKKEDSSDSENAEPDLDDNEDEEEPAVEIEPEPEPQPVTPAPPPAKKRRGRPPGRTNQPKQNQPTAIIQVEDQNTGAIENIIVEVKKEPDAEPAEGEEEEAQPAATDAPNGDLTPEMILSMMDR
Method: protein-binding microarray
Form: double-stranded DNA, one strand shown
Sample: in vitro
Tested at: not given
Notes: k-mer, scored over probes, only values ≥0.25
Direction: higher = stronger binding
Strand | E-score
TACGTAAA | 0.329
ACATATAG | 0.295
AAATTCCA | 0.277
AATATATT | 0.427

Study 3
Target: Sal-like protein 4, full length isoform A (SALL4, Homo sapiens, UniProt Q9UJQ4, residues 1-1053)
UniProt Q9UJQ4, sequence (whole entry, looked up): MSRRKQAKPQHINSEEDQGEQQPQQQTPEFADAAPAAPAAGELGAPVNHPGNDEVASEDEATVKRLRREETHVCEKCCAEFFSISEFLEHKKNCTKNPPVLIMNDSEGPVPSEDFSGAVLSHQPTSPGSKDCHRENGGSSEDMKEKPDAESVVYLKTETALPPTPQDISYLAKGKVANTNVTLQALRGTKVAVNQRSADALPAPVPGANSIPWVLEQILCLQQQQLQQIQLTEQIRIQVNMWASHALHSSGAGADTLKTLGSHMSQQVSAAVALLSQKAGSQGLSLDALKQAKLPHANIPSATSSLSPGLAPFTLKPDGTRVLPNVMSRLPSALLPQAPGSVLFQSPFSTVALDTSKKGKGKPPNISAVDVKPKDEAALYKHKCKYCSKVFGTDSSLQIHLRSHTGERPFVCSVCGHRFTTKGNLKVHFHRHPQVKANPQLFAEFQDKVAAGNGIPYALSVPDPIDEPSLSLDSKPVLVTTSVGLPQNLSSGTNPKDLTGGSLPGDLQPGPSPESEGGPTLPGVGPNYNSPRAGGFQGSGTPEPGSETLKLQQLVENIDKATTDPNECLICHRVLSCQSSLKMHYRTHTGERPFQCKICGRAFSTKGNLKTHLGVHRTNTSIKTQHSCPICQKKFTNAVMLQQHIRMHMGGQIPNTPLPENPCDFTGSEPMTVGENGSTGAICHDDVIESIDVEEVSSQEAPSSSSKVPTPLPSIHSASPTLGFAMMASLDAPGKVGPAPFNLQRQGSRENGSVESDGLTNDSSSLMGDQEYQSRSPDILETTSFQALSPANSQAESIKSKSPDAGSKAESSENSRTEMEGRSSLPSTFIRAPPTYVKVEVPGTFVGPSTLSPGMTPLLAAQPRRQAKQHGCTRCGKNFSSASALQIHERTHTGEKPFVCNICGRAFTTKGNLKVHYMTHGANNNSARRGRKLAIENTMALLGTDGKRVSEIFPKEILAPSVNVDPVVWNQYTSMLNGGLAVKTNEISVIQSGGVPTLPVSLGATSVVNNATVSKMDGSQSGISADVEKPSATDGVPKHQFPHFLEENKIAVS
Method: universal PBM
Form: double-stranded DNA, one strand shown
Sample: in vitro
Tested at: 600 nM
Notes: 8-mer, flanks averaged, mean of replicates
Direction: higher = stronger binding
Strand | E-score
ATCGAACC | -0.0129
CAGGGCCC | -0.403
CAGATCTC | -0.111
ATTTCCCG | 0.122

Other studies, line by line
Substance | target | test | test system | setting | how to read | quantity | result
PhoQ, residues 284 288 289 292 302 303 TTSMTC | PhoP, residues 12 14 15 18 19 NQFFI (Escherichia coli, UniProt P23836) | Sort-seq, refers to: YFP reporter | E. coli | PhoQ-PhoP variant library, together with: 10 µM Mg2+ | baseline: high Mg2+ state, higher = stronger signaling | fold induction | 16.6

Excerpt of the above (other studies, line by line):
Substance | target | test | test system | setting | how to read | quantity | result
PhoQ, residues 284 288 289 292 302 303 TTSMTC | PhoP, residues 12 14 15 18 19 NQFFI (Escherichia coli, UniProt P23836) | Sort-seq, refers to: YFP reporter | E. coli | PhoQ-PhoP variant library, together with: 10 µM Mg2+ | baseline: high Mg2+ state, higher = stronger signaling | fold induction | 16.6
